# Measurements collected from several papers.
# Numbered parts are unrelated; each lists some results of a single study. Changes are numbered by the printed parent chain.

# Block 1
# Target: Histone acetyltransferase KAT6A, both winged helices, GST fusion (KAT6A, Homo sapiens, UniProt Q92794, residues 1-181)
# Technique: protein binding microarray
# Form: double-stranded DNA, one strand shown
# Sample: in vitro
# Concentration: not given
# Notes: 8-mer, flanks averaged, mean of 2 arrays, mostly near background
# Reference: not given
# Direction: higher = stronger binding
# Residues (chain): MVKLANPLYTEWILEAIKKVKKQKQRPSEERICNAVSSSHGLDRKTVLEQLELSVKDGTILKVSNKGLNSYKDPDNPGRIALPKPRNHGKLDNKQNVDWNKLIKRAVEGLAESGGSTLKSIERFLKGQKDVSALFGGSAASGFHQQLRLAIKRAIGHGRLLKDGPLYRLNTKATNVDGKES
Oligonucleotide,E-score
ACTAATTC,-0.0213
ACCGGACG,0.233
CCCCACAC,-0.251
ACTAGTAC,0.00884
AGTTAAAT,-0.0213
CACTTAAG,0.108
CGCATACC,0.266
CGCTCAAC,0.169
GGTGAACA,-0.127

# Block 2
# Target: CCND1, cyclin fold, Cln2 fusion (human)
# Technique: yeast growth competition, sequencing
# Sample: yeast
# Notes: strong parent motif
# Reference: not given
# Direction: higher = stronger binding
# Starting sequence: PKN2 docking peptide (human); VSAVRKLDFSDTM; partner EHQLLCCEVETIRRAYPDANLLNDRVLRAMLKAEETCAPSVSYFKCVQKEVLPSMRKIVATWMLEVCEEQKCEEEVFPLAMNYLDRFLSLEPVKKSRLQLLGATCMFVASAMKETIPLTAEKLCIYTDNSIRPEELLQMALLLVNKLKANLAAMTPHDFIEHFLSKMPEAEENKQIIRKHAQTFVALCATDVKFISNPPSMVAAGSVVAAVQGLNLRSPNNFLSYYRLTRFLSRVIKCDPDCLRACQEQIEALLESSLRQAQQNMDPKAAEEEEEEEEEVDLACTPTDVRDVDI
Variant,normalised enrichment score
VSAVRHLDFSDTM [K6H],3.01
VSQVRKLDFSDTM [A3Q],0.394
VSAVRKVDFSDTM [L7V],0.261
VSAVRKCDFSDTM [L7C],0.0801
VSAVRKLDFSVTM [D11V],4.77

# Block 3
# Target: Max-binding protein MNT, bHLH-zipper, MAX partner unstated (MNT, Homo sapiens, UniProt Q99583, residues 220-300)
# Technique: protein-binding microarray
# Form: double-stranded DNA, one strand shown
# Sample: in vitro
# Concentration: not given
# Notes: k-mer, scored over probes, only values ≥0.25
# Direction: higher = stronger binding
# Construct (chain): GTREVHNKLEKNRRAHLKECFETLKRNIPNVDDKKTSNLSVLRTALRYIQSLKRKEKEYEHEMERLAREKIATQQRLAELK
Oligonucleotide,E-score
CATGCCGG,0.313
CCTCGTGC,0.457
AGAACGTG,0.392
GCATGCCC,0.399
CGGGTGGC,0.264

# Other studies, line by line
Substance,target,assay,test system,setting,scale,endpoint,value
"PhoQ, residues 284 288 289 292 302 303 SLSLLA","PhoP, residues 12 14 15 18 19 HLGGL (Escherichia coli, UniProt P23836)","Sort-seq, refers to: YFP reporter",E. coli,"PhoQ-PhoP variant library, added: 10 µM Mg2+","reference: high Mg2+ state, higher = stronger signaling",fold induction,22.7

# Repeated from above (block 1):
Oligonucleotide,E-score
CGCATACC,0.266
CGCTCAAC,0.169
